Measured values from different studies.
Numbered parts are unrelated; each lists some results of a single study.

Sample 1
Target: Ras GTPase-activating protein-binding protein 1, C-terminal RGG region (G3BP1, Homo sapiens, UniProt Q13283)
Sequence of UniProt Q13283 (whole entry, looked up): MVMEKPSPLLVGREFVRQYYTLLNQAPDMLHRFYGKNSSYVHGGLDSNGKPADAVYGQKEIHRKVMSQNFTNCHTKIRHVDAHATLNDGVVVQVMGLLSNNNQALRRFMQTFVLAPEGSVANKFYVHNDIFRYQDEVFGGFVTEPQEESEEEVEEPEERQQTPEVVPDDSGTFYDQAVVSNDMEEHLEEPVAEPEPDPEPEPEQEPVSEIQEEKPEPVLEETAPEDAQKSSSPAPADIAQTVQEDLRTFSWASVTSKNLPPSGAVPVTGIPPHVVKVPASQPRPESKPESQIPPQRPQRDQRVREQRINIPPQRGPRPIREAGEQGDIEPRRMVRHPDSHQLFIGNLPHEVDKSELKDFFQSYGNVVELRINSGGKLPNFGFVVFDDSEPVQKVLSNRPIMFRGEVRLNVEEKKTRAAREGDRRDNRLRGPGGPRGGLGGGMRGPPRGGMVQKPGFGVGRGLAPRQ
Technique: RNA Bind-n-Seq
Form: RNA
Sample: in vitro
Concentration: 1 µM
Setting: whole 134-nt RNA, ends assumed
Together with: 150 mM KCl
Baseline: input library
Direction: higher = stronger binding
Constant ends, left off below: GGGAGUUCUACAGUCCGACGAUC … UGGAAUUCUCGGGUGUCAAGG
Sequence | log2 enrichment
UGGGAGGUGGAUUUUGUUUAUUUUUUUAGCUCAUUUCCAGGGGUGGGAAUUUUUUUUUAAUAUGUGUCAUGGAUAAAGUUGUUUUUGAAA | 3.63
GCAGGAAGUAAAAACAAAUGGAAAUGCUUCGGAUAGUGGCAGGGGUGGGGGUUGCUAAGGAAAGGGUGUGAUGGGAGUGGGUAAAGAGUU | 2.22
CCUCAAGUCCUGUGCUACACAUCGUAUGUACCGAAUCGGGUGGUGGGGUGGGAAAGUAUUAUGUUACGCCGUUCGGAUCUGCACUUCCAG | 0.779
UCAAGUCCUGUGCUACACAUCGUAUGUACCGAAUCGGAAAGGAAAGGGAAAGGGAAAGUAUUAUGUUACGCCGUUCGGAUCUGCACUUCC | -1.33
AGAUGAACAAGAGAACUGGGCAACCCAUGAUCCACAUCUACCUGGACAAGGAAACAGGAAAGCCCAAAGGCGAUGCCACAGUGUCCUAUG | -2.35

Sample 2
Target: Centromere-binding protein 1, full length, His-tagged (CBF1, Saccharomyces cerevisiae, UniProt P17106, residues 1-351)
Sequence of UniProt P17106 (whole entry, looked up): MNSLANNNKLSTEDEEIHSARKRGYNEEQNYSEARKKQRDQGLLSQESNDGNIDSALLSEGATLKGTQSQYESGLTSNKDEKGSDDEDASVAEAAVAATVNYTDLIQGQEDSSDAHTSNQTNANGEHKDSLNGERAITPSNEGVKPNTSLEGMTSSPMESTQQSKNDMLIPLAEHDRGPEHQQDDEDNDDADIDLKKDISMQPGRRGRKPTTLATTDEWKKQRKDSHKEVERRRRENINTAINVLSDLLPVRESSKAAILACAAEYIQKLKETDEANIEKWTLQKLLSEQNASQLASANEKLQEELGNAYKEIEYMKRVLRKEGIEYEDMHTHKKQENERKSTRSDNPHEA
Technique: competition protein-binding microarray
Form: double-stranded DNA, one strand shown
Sample: in vitro
Concentration: 2 µM
Setting: whole 60-bp probe, lowest competitor level
Together with: Pho4 competitor, 0.05 µM
Direction: higher = stronger binding
Constant ends, left off below: … GTCTTGATTCGCTTGACGCTGCTG
Sequence | fluorescence intensity
TTTAAAATGAGTGCGTAACCGTACTTTCCTAAAAAT | 68.3 a.u.
CGTCCTAGTGATTGCTGGGTGGGTGCCATGAGGAAG | 75.4 a.u.
CTTCTGTAAATTTTTCACGTGGTATGACGCGCCCCG | 1140 a.u.
TCAAAATTGGCATCGCACGTGAAGTTACATATATCC | 751 a.u.
ACTCAGTTACTCAGTCAGCTGATGCGATGCGATGTT | 618 a.u.
CGGGGTTAAGTTTGCAGTGTGGGTGGCTTGCAGCAG | 79.6 a.u.
GGACCATATAGAGCATAGGTGTGGCCCGCGATCCAG | 51 a.u.
GTCTTGTCTCATTGACCTGTGGGTGTCCCCACTTCA | 70 a.u.
CAAATTTGCCAGCGTCACAATGTCGTTTGCCTCTTG | 77.3 a.u.

Sample 3
Target: Interferon regulatory factor 5, full length, phosphomimetic (IRF5, Homo sapiens, UniProt Q13568-2, residues 1-514, S451D/S453D/S456D/S462D)
Technique: protein-binding microarray
Form: double-stranded DNA, one strand shown
Sample: in vitro
Concentration: 940 nM top
Setting: 60-bp whole probe
Together with: salmon DNA 0.4 mg/ml
Baseline: random background probes
Direction: higher = stronger binding
Constant ends, left off below: GCCTAGCAC … GTCTTGATTCGCTTGACGCTGCTG
Sequence | fitted relative affinity [z-score]
GACGGCATCGACACTGGGGACGTGCTA | -0.224
CTGGCTGGGGTGGTGGCAGTGTGCTAG | -0.592
TTAGGACTGGACGATCGGTTAGTGCTA | -0.499
GACGAACTGAGTTTCGGGACGTGCTAG | 4.11
TCACCTTGAGGTTTTCTCACTGTGCTA | 0.27
TTAGGAATGGGGACTGGGTTAGTGCTA | 0.0655
TTAGGTTTCCTTCTCTTTTAGTGCTAG | 2.35
TCACAACTCTGTTTTCGACTGTGCTAG | 0.385

Mixed results
Substance | target | assay | system | conditions | how to read | quantity | result
PhoQ, residues 284 288 289 292 302 303 NSMLDC | PhoP, residues 12 14 15 18 19 SGWQI (Escherichia coli, UniProt P23836) | Sort-seq, measured: YFP reporter | E. coli | PhoQ-PhoP variant library, together with: 10 µM Mg2+ | baseline: high Mg2+ state, higher = stronger signaling | fold induction | 10.2

A few entries again (mixed results):
Substance | target | assay | system | conditions | how to read | quantity | result
PhoQ, residues 284 288 289 292 302 303 NSMLDC | PhoP, residues 12 14 15 18 19 SGWQI (Escherichia coli, UniProt P23836) | Sort-seq, measured: YFP reporter | E. coli | PhoQ-PhoP variant library, together with: 10 µM Mg2+ | baseline: high Mg2+ state, higher = stronger signaling | fold induction | 10.2
